Measured values pooled from the literature.
Each line is one published result; not all experiments were run side by side. Several values in a cell are separate wells, animals, samples, runs or records. Numbers after ± are the reported error.
Genome polyprotein NS3 helicase domain: Genome polyprotein, NS3 helicase domain (Hepatitis C virus genotype 1b, UniProt Q9WMX2)
WD repeat-containing protein 91 WD40 domain, residues 392–747: WD repeat-containing protein 91, WD40 domain, residues 392–747 (Homo sapiens, UniProt A4D1P6)
Chain of UniProt A4D1P6 (whole entry, looked up): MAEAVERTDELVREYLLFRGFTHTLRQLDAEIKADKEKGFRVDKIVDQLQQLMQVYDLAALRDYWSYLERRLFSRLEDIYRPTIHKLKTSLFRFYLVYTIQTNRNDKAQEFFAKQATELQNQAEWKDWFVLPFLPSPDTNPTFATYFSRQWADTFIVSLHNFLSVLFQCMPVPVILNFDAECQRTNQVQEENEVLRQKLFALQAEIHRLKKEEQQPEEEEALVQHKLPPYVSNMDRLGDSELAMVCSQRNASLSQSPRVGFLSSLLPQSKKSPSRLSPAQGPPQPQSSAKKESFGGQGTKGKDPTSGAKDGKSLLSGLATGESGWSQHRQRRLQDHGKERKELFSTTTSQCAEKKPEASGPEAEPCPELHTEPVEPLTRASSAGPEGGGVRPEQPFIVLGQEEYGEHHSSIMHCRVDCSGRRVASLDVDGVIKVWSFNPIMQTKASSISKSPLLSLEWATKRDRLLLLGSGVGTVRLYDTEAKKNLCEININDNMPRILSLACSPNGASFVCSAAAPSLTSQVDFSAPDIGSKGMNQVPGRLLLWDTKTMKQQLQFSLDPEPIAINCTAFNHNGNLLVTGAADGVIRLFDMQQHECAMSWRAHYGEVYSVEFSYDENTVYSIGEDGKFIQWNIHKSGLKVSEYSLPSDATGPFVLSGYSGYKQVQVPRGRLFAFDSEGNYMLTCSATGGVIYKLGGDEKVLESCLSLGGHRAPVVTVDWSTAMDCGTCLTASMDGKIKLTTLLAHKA
CALM1 Ca2+-bound N-lobe: Calmodulin-1, Ca2+-bound N-lobe (CALM1, Homo sapiens, UniProt P0DP23)
Chain of UniProt Q64663 (whole entry, unmodified, looked up): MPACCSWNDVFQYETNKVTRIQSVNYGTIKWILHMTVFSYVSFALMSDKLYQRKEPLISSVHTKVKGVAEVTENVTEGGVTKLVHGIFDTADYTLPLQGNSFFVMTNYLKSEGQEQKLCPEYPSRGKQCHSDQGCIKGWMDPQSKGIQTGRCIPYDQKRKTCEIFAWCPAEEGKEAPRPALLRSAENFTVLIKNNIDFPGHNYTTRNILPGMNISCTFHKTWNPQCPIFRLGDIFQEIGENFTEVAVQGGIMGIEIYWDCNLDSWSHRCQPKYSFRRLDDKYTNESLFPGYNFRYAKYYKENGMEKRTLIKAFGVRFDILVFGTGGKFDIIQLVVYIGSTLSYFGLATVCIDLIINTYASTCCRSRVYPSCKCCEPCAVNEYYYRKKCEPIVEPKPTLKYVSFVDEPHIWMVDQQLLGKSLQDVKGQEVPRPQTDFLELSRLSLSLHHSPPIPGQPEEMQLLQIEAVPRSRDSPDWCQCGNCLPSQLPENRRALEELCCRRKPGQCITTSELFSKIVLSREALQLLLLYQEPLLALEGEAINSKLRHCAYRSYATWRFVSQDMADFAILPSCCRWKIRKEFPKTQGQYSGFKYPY
Chain of UniProt P51575 (whole entry, unmodified, looked up): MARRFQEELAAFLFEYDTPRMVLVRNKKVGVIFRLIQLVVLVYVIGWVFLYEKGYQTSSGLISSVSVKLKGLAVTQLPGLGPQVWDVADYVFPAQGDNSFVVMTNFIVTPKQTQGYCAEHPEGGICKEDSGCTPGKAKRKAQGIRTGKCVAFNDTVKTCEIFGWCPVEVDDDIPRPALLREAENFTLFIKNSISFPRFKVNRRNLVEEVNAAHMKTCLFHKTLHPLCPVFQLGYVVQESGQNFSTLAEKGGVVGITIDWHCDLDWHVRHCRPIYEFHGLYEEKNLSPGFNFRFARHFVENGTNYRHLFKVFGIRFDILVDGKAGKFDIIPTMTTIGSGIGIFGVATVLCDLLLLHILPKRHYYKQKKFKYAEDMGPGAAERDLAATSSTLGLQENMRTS
Chain of UniProt Q9H1C0 (whole entry, looked up): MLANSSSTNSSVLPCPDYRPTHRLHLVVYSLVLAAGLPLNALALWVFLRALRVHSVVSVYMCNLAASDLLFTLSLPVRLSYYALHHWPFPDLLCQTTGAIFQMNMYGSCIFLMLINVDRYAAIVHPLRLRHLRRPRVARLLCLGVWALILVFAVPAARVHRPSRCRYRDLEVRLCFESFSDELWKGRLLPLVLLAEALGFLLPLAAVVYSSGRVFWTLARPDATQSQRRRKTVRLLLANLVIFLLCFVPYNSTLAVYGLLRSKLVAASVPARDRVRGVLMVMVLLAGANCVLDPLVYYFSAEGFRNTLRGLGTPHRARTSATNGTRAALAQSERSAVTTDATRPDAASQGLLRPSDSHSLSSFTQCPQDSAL

| SMILES | target | test | system | conditions | scale | endpoint | result |
| --- | --- | --- | --- | --- | --- | --- | --- |
| O=c1c(O)c(-c2ccc(O)c(O)c2)oc2cc(O)cc(O)c12 | Genome polyprotein NS3 helicase domain | DNA binding, inhibitor | hepatitis C virus | 100 µM, added: Cy5-dT15 DNA | – | inhibition | 2% |
| CCN(CC)CCOc1ccc2c(c1)C(=O)c1cc(OCCN(CC)CC)ccc1-2 | ACHE (Homo sapiens, UniProt P22303) | enzyme activity | – | – | – | curve top | 99 % inhibition |
| O=O | HIF1AN (Homo sapiens, UniProt Q9NWT6) | substrate, MALDI-TOF MS | – | pH 7.00, 37.0 °C, added: CTAD 80 µM, αKG 100 µM | – | Km | 221 ± 33 µM |
| N#CC1CCN(C(=O)c2ccc(-c3cccc4cccnc34)cc2)CC1 | WD repeat-containing protein 91 WD40 domain, residues 392–747 | SPR | – | 45 µM | – | binding | -38% and -35% |
| CC12CC3CC(C)(C1)CC(N)(C3)C2 | Glutamate receptor 2 (Homo sapiens, UniProt P42262) | ion current, agonist, SyncroPatch patch clamp | HEK293 | 10 µM | – | activation | 3% |
| O=C(O)[C@@H](O)[C@@H](O)[C@H](O)[C@@H](O)CO | Uncharacterized protein (Chromohalobacter israelensis, UniProt Q1QT90) | binder, thermal shift | – | – | – | delta Tm | 2.1 °C |
| N#CC1CCN(C(=O)c2ccc(CNS(=O)(=O)c3ccccc3)cc2)CC1 | WD repeat-containing protein 91 WD40 domain, residues 392–747 | binding, SPR single-concentration screen | – | 45 µM | – | SPR response | -8.2 RU and -0.7 RU |
| Cn1cc(-n2cnc3c(NCc4nc5cc(Cl)c(Cl)cc5[nH]4)nc(N4CCOCC4)nc32)cn1 | Cyclin-dependent kinase 12, with cyclin K (CDK12, Homo sapiens, UniProt Q9NYV4) | kinase activity, inhibitor, ADP-Glo | – | 0.6667 µM | – | inhibition | 83.9% |
| C[C@@H](c1ccc(-n2cnc3c(N)ncnc32)cc1)N1CCc2nn(C)c(Cc3ccccc3)c2C1=O | WNK1 (Homo sapiens, UniProt Q9H4A3) | KINOMEscan | – | 0.1 µM | relative to: DMSO control | remaining binding | 72% |
| CC[C@H](C)[C@H](NC(=O)[C@H](CCSC)NC(=O)[C@H](CCSC)NC(=O)[C@H](C)NC(=O)[C@H](C)NC(=O)[C@H](Cc1ccc(O)cc1)NC(=O)[C@@H](NC(=O)[C@H](CCCCN)NC(=O)CNC(=O)[C@@H](NC(=O)[C@@H](NC(=O)[C@H](CCSC)NC(=O)[C@H](Cc1c[nH]cn1)NC(=O)CN)[C@@H](C)O)C(C)C)[C@@H](C)CC)C(=O)N[C@@H](C)C(=O)N[C@@H](CCC(=O)O)C(=O)N[C@@H](Cc1ccc(O)cc1)C(=O)N[C@@H](Cc1ccc(O)cc1)C(=O)N[C@@H](CCCNC(=N)N)C(=O)N[C@@H](CCC(N)=O)C(=O)N[C@@H](CO)C(=O)N[C@@H](CCCCN)C(=O)N[C@@H](C)C(=O)N[C@@H](CCCCN)C(=O)N[C@@H](CCCCN)C(=O)N[C@@H](CC(C)C)C(=O)N[C@@H](CCC(N)=O)C(=O)N[C@@H](C)C(=O)N[C@@H](CCSC)C(=O)N[C@@H](CCCNC(=N)N)C(=O)O | CALM1 Ca2+-bound N-lobe | binding, isothermal titration calorimetry | – | N-lobe, CaV2.1 IQ domain, unit not given, added: Ca2+ | relative to: wild-type IQ domain | ΔΔG | 1.16 |
| Cc1cccc(N2CC(C(=O)O)CC2=O)c1 (centres unmarked) | WD repeat-containing protein 91 (Homo sapiens, UniProt A4D1P6) | binding, affinity selection mass spectrometry | – | – | relative to: other proteins in batch | log fold enrichment | -0.0396 |
| CCCCCCCCCCCCCCCCCCNC(=O)OCC(COP(=O)([O-])OCC[n+]1ccsc1)OC (centres unmarked) | Genome polyprotein NS3 helicase domain | DNA binding, inhibitor | hepatitis C virus | 100 µM, added: Cy5-dT15 DNA | – | inhibition | 0% |
| N#Cc1cccc(OCc2cn(-c3ccc(C(=O)N4CCC(C#N)CC4)cc3)nn2)c1 | WD repeat-containing protein 91, residues 392–747 (Homo sapiens, UniProt A4D1P6) | SPR dose-response titration | – | concentration not given, 1:1 binding model | – | binding | 51% and 47% |
| CN(C)C(=O)C(CCN1CCC(O)(c2ccc(Cl)cc2)CC1)(c1ccccc1)c1ccccc1 | Calcium-activated potassium channel subunit alpha-1, with LRRC26 γ1 subunit (KCNMA1, Homo sapiens, UniProt Q12791) | ion current, inside-out patch, mean of individual fits | BKα/γ1 channel | 0.1 µM, added: nominally 0 Ca2+ | – | V1/2 | 18 ± 5 mV |
| O=c1nc(SCc2cc(F)cc(C(F)(F)F)c2)nc(SCc2ccc3nc(OCCN4CCOCC4)ccc3c2)[nH]1 | TOP2A (Homo sapiens, UniProt P11388) | decatenation | – | 7.8 µM | – | mean decatenated DNA | 92.4% |
| Nc1ncnc2c1ncn2[C@@H]1O[C@H](CO[P@](=O)(O)O[P@](=O)(O)O[P@@](=O)(O)S)[C@@H](O)[C@H]1O | GUK1 (Homo sapiens, UniProt Q16774) | binding, isothermal titration calorimetry | – | molar ratio 2.83, fitted curve | – | ΔH | -0.283 kcal/mol |
| CCN1CCC[C@H]1CNC(=O)c1c(O)c(Cl)cc(Cl)c1OC | LPAR5 (Homo sapiens, UniProt Q9H1C0) | β-arrestin recruitment, TANGO luminescence, refers to: GPR92 | – | concentration not given | relative to: basal luminescence | log2 fold change | 0.373 |
| COc1ccc(-c2oc3c(CC=C(C)C)c(O[C@@H]4O[C@H](CO)[C@@H](O)[C@H](O)[C@H]4O)cc(O)c3c(=O)c2O[C@@H]2O[C@@H](C)[C@H](O)[C@@H](O)[C@H]2O[C@@H]2O[C@@H](C)[C@H](O)[C@@H](O)[C@H]2O)cc1 | Estrogen receptor (ESR1, Homo sapiens, UniProt P03372) | array formation | PRL-HeLa | – | relative to: EC50 ERβ over EC50 ERα | selectivity ratio | 1.39 |
| OC[C@H]1OC(O)[C@H](O)[C@@H](O)[C@@H]1O (some centres unmarked) | Interferon regulatory factor 6 (IRF6, Homo sapiens, UniProt O14896, P104G) | microscale thermophoresis | – | concentration not given | relative to: wild type | binding affinity decrease | 8 fold |
| Nc1ncnc2c1ncn2[C@@H]1O[C@H](COP(=O)(O)CP(=O)(O)OP(=O)(O)O)[C@@H](O)[C@H]1O | P2X purinoceptor 1 (P2RX1, Homo sapiens, UniProt P51575, M214A) | calcium influx | – | 31.6 nM | relative to: ionomycin response | calcium influx | 0.461% and 0% and 1.72% and 0.551% |
| Nc1nc(Cl)nc2c1ncn2[C@@H]1O[C@H](CO)[C@@H](O)[C@H]1O | Genome polyprotein NS3 helicase domain | DNA binding, inhibitor | hepatitis C virus | 100 µM, added: Cy5-dT15 DNA | – | inhibition | 0% |
| Nc1ncnc2c1ncn2[C@@H]1O[C@H](COP(=O)(O)OP(=O)(O)OP(=O)(O)O)[C@@H](O)[C@H]1O | P2X purinoceptor 7 (P2rx7, Rattus norvegicus, UniProt Q64663, Q143A) | ion current, agonist, two-electrode voltage clamp | Xenopus laevis oocytes | 1500 µM | relative to: highest concentration response | normalized current | 1 |
| Cc1ccc(Cl)c(Nc2ccccc2C(=O)O)c1Cl | Genome polyprotein NS3 helicase domain | DNA binding, inhibitor | hepatitis C virus | 100 µM, added: Cy5-dT15 DNA | – | inhibition | 0% |
| C[C@@H](O)[C@H](N)C(=O)O | N-alpha-acetyltransferase 80 (NAA80, Homo sapiens, UniProt Q93015) | substrate, DTNB | – | 2 mM, 30 min, 37 °C, added: acetyl-CoA 500 µM | – | product formation | 1.93 µM |
| COC(=O)C1=C(C)NC(C)=C(C(=O)OC(C)(C)CN(C)CCC(c2ccccc2)c2ccccc2)C1c1cccc([N+](=O)[O-])c1.COC(=O)C1=C(C)NC(C)=C(C(=O)OC(C)(C)CN(C)CCC(c2ccccc2)c2ccccc2)C1c1cccc([N+](=O)[O-])c1.Cl.Cl.O (centres unmarked) | Genome polyprotein NS3 helicase domain | DNA binding, inhibitor | hepatitis C virus | 100 µM, added: Cy5-dT15 DNA | – | inhibition | 3% |
| [H]/N=C(/N)NCC(=O)O | SLC6A6 (Homo sapiens, UniProt P31641, G62A) | binding, microscale thermophoresis | – | 15.6 µM, room temperature, added: 50 nM labelled protein | higher = more binding | normalised MST signal | -0.0141 |
| C=C1C(=O)O[C@@H]2C[C@@]3(C)CCCC(=C)[C@@H]3C[C@H]12 | RORC (Homo sapiens, UniProt P51449) | reporter gene, Gal4 hybrid reporter | – | 10 µM | relative to: vehicle | activation | 0.76 fold |
| COC(=O)CCc1ccc(C(=O)N/N=C/C(Br)=C/c2ccccc2)cc1 | HDAC3 (Homo sapiens, UniProt O15379) | inhibitor, fluorogenic | – | 5 and 10 µM | relative to: SAHA | enzyme activity | no effect |
| CC[C@H](C)[C@H](NC(=O)[C@H](C)NC(=O)[C@H](CCSC)NC(=O)[C@H](C)NC(=O)[C@H](C)NC(=O)[C@H](Cc1ccc(O)cc1)NC(=O)[C@@H](NC(=O)[C@H](CCCCN)NC(=O)CNC(=O)[C@@H](NC(=O)[C@@H](NC(=O)[C@H](CCSC)NC(=O)[C@H](Cc1c[nH]cn1)NC(=O)CN)[C@@H](C)O)C(C)C)[C@@H](C)CC)C(=O)N[C@@H](CCSC)C(=O)N[C@@H](CCC(=O)O)C(=O)N[C@@H](Cc1ccc(O)cc1)C(=O)N[C@@H](Cc1ccc(O)cc1)C(=O)N[C@@H](CCCNC(=N)N)C(=O)N[C@@H](CCC(N)=O)C(=O)N[C@@H](CO)C(=O)N[C@@H](CCCCN)C(=O)N[C@@H](C)C(=O)N[C@@H](CCCCN)C(=O)N[C@@H](CCCCN)C(=O)N[C@@H](CC(C)C)C(=O)N[C@@H](CCC(N)=O)C(=O)N[C@@H](C)C(=O)N[C@@H](CCSC)C(=O)N[C@@H](CCCNC(=N)N)C(=O)O | CALM1 Ca2+-bound N-lobe | binding, isothermal titration calorimetry | – | pH 7.4, 15 °C, N-lobe, CaV2.1 IQ domain, added: Ca2+ | – | ΔS | 19.4 ± 0.4 cal/mol/K |

Repeated from above:
| SMILES | target | test | system | conditions | scale | endpoint | result |
| --- | --- | --- | --- | --- | --- | --- | --- |
| CC[C@H](C)[C@H](NC(=O)[C@H](C)NC(=O)[C@H](CCSC)NC(=O)[C@H](C)NC(=O)[C@H](C)NC(=O)[C@H](Cc1ccc(O)cc1)NC(=O)[C@@H](NC(=O)[C@H](CCCCN)NC(=O)CNC(=O)[C@@H](NC(=O)[C@@H](NC(=O)[C@H](CCSC)NC(=O)[C@H](Cc1c[nH]cn1)NC(=O)CN)[C@@H](C)O)C(C)C)[C@@H](C)CC)C(=O)N[C@@H](CCSC)C(=O)N[C@@H](CCC(=O)O)C(=O)N[C@@H](Cc1ccc(O)cc1)C(=O)N[C@@H](Cc1ccc(O)cc1)C(=O)N[C@@H](CCCNC(=N)N)C(=O)N[C@@H](CCC(N)=O)C(=O)N[C@@H](CO)C(=O)N[C@@H](CCCCN)C(=O)N[C@@H](C)C(=O)N[C@@H](CCCCN)C(=O)N[C@@H](CCCCN)C(=O)N[C@@H](CC(C)C)C(=O)N[C@@H](CCC(N)=O)C(=O)N[C@@H](C)C(=O)N[C@@H](CCSC)C(=O)N[C@@H](CCCNC(=N)N)C(=O)O | CALM1 Ca2+-bound N-lobe | binding, isothermal titration calorimetry | – | pH 7.4, 15 °C, N-lobe, CaV2.1 IQ domain, added: Ca2+ | – | ΔS | 19.4 ± 0.4 cal/mol/K |
| C=C1C(=O)O[C@@H]2C[C@@]3(C)CCCC(=C)[C@@H]3C[C@H]12 | RORC (Homo sapiens, UniProt P51449) | reporter gene, Gal4 hybrid reporter | – | 10 µM | relative to: vehicle | activation | 0.76 fold |
